Measured values of several laboratories.
Every numbered part comes from another study and shows a few of its results, in no order.

Set 1
Target: RNA binding protein fox-1 homolog 2, RRM domain, GST-SBP tag (RBFOX2, Homo sapiens, UniProt O43251-10, residues 100-194)
Technique: RNA Bind-n-Seq
Molecule type: RNA
Sample: in vitro
Concentration: 365 nM
Notes: natural RNA segment, single round, ends assumed
Relative to: no-protein control
Reading: higher = stronger binding
Endpoint: RBNS enrichment (R)
Shared flanks, not repeated: GGGAGUUCUACAGUCCGACGAUC … UGGAAUUCUCGGGUGCCAA
Residues (chain): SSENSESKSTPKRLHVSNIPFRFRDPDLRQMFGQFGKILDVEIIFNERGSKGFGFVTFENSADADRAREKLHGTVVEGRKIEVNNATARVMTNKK
Oligonucleotide = GGGAGGCACGAGCCAGAGACCAGGACCUGCAGGUCCUUUGCUGCUGGGAACUCUCCCAUUUUCAGGUUUCUAGAGCUGUCGAUAAAAUCCUGUGAACUGAGAGCGAGGAG; result = 1.01
Oligonucleotide = AGUCAGCCUGGGCCCUUAGCCCAUGACUACCCUCCAGUGAGGCUCUGAGGCCUGGCUAGGGCCCUCCUGGGCAGAGCCCCUGCCUAGCCCUUCAGGCCUGAUGCCUCAGG; result = 0.19
Oligonucleotide = UUCUUUAUAGUUAAGUCUCUGUUUUCCAUGUUCUGUCAUUUAUAUAGGUCAAGGACAAGUGCCUUCUAAGGCAUGGAUAAGGGCUUUCUUCUUAUGAAAGUCUAGACUGU; result = 0.307
Oligonucleotide = GAUAAUUCCUUCUAUGCGCAGUUUAGACAUCUCUGUUGGGCUUUUUUUUUAAAUUUUUAUUUUAAAAGGCACAAAACUAUAGAUAUUAGUUGAAUGUUGAGGCUUUAACU; result = 0.569
Oligonucleotide = UGGAGCUCAUUGAUUAGAAGAUAACACCCAGGAAUUGUUUCCACUGGGUCCUGGCUGUCCAUAAGGAAAGUGGUAUCAGUGGCCCAGCGUAGAUGGAGAGAAAGUCAGAA; result = 2.12
Oligonucleotide = GGUGCAUUCCUGUCCCCCUCGGCCCCAGGCUGGCUCAGCUCUCCAGUGCUGCGGCGCUGUCUUUGCAGCAUUGCCAUGUCACCGUAGCCCCCUUCACUCUUGGAAGUUUG; result = 0.349
Oligonucleotide = UCGUGGAUUCAGCCAUGCAUGGACUGGGGUGUUCCCUGGCCCAUGGUCACCUGUGCCCCUCGUGUCUCCUCACAUGGGUGUCUGUGGUUCUCUCCUGUGUAAAUGUCACG; result = 0.273

Set 2
Substance: PhoQ, residues 284 288 289 292 302 303 TGYLSA
Technique: Sort-seq
Measured: YFP reporter
Sample: E. coli
Notes: PhoQ-PhoP variant library
Together with: 10 µM Mg2+
Relative to: high Mg2+ state
Reading: higher = stronger signaling
Endpoint: fold induction
target = PhoP, residues 12 14 15 18 19 VHTVL (Escherichia coli, UniProt P23836); result = 7.55
target = PhoP, residues 12 14 15 18 19 ICWRQ (Escherichia coli, UniProt P23836); result = 4.18
target = PhoP, residues 12 14 15 18 19 TQCLL (Escherichia coli, UniProt P23836); result = 3.93

Set 3
Target: PABPC1L2, full length, GST fusion (mouse, UniProt A0ABA7IW68)
Technique: RNAcompete
Molecule type: RNA
Sample: in vitro
Concentration: 20 nM
Notes: 7-mer, probes averaged, single round
Relative to: mean of 7-mers
Reading: higher = stronger binding
Endpoint: 7-mer Z-score
Residues (chain): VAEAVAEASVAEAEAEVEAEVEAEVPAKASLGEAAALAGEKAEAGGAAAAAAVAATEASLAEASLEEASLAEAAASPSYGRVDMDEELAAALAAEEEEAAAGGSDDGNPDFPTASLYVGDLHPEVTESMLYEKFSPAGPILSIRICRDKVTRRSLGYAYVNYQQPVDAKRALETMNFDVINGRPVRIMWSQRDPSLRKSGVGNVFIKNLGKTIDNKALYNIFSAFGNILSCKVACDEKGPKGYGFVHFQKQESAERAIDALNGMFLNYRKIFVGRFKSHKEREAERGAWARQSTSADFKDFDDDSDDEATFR
Oligonucleotide = GAUGAGG; result = -0.0772
Oligonucleotide = CGACCGG; result = -0.103
Oligonucleotide = GUGACCA; result = -0.021
Oligonucleotide = CCGUCCG; result = -0.469
Oligonucleotide = CACAGCG; result = -0.0881
Oligonucleotide = UCAAAGG; result = -0.0863
Oligonucleotide = GUGUUCC; result = -0.327
Oligonucleotide = UCUACUA; result = -0.273
Oligonucleotide = UUGGACC; result = -0.0174
Oligonucleotide = AGGACGG; result = 0.381
Oligonucleotide = CUAAUCG; result = -0.248

Set 4
Target: Histone acetyltransferase KAT6A, winged helix 2, GST fusion (KAT6A, Homo sapiens, UniProt Q92794, residues 85-181)
Technique: protein binding microarray
Molecule type: double-stranded DNA, one strand shown
Sample: in vitro
Concentration: not given
Notes: 8-mer, flanks averaged, mean of 2 arrays, mostly near background
Relative to: not given
Reading: higher = stronger binding
Endpoint: E-score
Target sequence (chain): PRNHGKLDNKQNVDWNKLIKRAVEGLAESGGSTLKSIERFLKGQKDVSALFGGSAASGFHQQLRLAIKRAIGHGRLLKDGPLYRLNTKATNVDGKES
Oligonucleotide = GAGCATGA; result = -0.0703
Oligonucleotide = AACAAGTT; result = -0.0159
Oligonucleotide = GCCGTGCC; result = 0.182
Oligonucleotide = GCAGCTAA; result = 0.198
Oligonucleotide = ATATCTTA; result = 0.163
Oligonucleotide = CGGCCAAC; result = 0.0379
Oligonucleotide = GCAATCGC; result = -0.0436
Oligonucleotide = CTTTTGAC; result = -0.0608
Oligonucleotide = ATACGCGC; result = 0.0908
Oligonucleotide = GCCAGAAC; result = 0.0881
Oligonucleotide = ACAGTCAA; result = 0.0334
Oligonucleotide = CCCCGAAA; result = 0.0961
